Measurements pooled from the literature.
Every numbered part comes from another study and shows a few of its results, in no order. Values joined by “and” are separate records of one study, mostly repeats; a detail may differ.
Chain of UniProt Q15375 (whole entry, looked up): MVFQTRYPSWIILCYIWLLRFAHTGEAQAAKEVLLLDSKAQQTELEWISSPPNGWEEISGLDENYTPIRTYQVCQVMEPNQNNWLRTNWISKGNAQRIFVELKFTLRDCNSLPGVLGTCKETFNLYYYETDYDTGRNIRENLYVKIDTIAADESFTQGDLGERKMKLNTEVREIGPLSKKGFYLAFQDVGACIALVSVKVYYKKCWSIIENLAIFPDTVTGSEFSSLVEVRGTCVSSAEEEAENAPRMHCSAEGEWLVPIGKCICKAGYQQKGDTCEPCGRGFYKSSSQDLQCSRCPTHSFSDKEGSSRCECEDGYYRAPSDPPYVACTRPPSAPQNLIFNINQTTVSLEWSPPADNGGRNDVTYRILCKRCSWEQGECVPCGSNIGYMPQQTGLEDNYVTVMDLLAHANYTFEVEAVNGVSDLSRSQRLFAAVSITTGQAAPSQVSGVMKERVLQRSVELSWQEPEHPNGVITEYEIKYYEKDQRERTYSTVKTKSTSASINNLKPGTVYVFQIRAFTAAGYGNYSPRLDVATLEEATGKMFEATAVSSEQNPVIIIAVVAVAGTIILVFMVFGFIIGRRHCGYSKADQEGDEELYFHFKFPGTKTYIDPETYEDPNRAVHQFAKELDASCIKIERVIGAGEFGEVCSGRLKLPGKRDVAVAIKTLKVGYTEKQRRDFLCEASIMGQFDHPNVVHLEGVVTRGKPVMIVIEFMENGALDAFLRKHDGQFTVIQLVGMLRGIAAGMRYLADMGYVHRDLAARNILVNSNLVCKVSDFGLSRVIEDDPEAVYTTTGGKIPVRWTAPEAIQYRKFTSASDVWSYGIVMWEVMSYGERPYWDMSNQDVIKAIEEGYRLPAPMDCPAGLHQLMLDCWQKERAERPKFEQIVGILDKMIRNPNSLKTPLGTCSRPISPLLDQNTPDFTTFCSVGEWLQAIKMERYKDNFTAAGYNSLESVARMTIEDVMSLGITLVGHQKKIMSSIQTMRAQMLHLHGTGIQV
Chain of UniProt P00519 (whole entry, unmodified, looked up): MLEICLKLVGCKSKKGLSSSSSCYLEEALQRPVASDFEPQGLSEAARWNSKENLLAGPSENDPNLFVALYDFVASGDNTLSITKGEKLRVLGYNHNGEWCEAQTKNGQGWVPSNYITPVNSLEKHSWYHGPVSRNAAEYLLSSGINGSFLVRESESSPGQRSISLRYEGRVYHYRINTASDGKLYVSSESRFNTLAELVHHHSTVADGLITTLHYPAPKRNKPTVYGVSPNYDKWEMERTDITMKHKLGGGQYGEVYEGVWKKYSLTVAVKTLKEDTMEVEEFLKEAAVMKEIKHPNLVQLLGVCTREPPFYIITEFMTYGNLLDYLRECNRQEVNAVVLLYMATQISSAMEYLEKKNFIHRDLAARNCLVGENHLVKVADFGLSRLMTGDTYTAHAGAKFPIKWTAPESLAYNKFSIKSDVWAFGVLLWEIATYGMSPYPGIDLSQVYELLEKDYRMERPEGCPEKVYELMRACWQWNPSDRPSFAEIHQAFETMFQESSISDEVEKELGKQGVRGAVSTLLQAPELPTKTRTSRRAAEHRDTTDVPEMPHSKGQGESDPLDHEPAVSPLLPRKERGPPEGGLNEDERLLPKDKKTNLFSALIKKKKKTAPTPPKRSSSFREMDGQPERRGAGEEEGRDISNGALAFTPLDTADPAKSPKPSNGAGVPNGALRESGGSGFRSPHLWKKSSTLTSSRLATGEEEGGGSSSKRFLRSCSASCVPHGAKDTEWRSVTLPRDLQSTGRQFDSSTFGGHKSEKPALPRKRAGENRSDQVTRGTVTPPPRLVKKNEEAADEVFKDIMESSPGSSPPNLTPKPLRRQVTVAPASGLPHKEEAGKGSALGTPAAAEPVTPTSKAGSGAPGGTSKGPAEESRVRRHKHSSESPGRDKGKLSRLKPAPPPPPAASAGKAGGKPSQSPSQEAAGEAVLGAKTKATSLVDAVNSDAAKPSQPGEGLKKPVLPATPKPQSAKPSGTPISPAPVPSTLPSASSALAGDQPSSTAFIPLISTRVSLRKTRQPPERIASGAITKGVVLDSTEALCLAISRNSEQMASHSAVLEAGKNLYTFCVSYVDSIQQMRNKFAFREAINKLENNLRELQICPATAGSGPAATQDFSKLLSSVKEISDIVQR
Chain of UniProt Q6P3R8 (whole entry, looked up): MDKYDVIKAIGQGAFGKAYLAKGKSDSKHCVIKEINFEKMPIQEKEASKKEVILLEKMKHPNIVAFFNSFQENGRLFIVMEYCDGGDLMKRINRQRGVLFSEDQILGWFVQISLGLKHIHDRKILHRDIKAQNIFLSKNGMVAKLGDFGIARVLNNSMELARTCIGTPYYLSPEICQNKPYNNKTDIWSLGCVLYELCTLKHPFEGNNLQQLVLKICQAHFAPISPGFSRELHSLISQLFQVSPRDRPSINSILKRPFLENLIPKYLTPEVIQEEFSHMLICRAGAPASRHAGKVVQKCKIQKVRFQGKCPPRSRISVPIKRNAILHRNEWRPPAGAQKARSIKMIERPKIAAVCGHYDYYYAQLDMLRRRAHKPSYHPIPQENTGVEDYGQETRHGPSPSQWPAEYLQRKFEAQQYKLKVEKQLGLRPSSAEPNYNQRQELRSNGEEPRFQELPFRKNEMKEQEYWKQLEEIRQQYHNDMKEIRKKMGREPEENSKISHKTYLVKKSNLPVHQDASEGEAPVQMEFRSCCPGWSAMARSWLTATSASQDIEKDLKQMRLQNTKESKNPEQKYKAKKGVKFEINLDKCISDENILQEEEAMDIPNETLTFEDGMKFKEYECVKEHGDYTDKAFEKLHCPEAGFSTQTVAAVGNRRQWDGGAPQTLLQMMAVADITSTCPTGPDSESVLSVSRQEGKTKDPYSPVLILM
Chain of UniProt Q9NRP7 (whole entry, looked up): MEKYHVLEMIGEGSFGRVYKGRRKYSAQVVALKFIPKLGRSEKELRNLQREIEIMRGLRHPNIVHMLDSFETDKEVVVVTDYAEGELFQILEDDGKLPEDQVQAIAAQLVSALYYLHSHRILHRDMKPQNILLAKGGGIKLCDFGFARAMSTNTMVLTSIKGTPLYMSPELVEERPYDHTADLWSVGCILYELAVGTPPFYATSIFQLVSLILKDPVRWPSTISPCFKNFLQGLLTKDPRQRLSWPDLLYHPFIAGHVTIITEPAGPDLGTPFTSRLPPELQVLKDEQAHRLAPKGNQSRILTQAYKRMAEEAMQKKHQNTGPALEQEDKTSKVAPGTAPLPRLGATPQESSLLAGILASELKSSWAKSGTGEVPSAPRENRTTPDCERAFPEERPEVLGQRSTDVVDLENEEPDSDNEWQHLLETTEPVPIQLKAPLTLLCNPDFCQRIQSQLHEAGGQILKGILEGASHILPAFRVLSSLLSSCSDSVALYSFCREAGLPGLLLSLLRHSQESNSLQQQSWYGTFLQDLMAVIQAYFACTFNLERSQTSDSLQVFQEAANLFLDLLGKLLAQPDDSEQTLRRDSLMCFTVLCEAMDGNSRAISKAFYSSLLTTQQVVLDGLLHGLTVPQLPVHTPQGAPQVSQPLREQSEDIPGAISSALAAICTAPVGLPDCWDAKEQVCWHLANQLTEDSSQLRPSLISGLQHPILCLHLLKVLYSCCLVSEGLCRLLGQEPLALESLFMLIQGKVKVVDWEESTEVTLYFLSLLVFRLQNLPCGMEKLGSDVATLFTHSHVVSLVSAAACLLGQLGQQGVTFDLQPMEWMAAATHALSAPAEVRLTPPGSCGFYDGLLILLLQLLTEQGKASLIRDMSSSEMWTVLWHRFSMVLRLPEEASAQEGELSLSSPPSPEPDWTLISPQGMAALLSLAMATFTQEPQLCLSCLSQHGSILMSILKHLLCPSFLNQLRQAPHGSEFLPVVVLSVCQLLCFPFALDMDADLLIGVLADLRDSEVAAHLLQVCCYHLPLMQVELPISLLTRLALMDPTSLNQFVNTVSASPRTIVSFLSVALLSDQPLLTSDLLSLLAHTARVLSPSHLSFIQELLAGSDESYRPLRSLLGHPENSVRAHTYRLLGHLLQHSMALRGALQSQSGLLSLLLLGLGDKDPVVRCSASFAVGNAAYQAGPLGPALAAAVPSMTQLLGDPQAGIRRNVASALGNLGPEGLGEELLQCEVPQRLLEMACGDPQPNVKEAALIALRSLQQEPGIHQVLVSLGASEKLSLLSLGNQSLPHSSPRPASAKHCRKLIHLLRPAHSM
Chain of UniProt P19784 (whole entry, looked up): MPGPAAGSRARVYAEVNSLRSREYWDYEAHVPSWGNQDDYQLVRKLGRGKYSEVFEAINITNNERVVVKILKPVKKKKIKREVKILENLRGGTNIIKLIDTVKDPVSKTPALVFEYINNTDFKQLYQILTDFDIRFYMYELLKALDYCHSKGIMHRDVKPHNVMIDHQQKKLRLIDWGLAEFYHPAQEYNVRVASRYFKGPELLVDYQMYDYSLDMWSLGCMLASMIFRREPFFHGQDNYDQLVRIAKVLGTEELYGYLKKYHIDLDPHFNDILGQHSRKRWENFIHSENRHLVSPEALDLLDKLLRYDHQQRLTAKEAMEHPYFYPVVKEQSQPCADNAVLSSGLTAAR

Sample 1
SMILES: CC(C)(C(=O)O)[C@H](NC(=O)Cc1cccc(I)c1)c1ccc2oc(=O)[nH]c2c1
Method: Incucyte 3D growth
Tested at: 30 µM
Direction: higher = more growth
| cell line | setting | spheroid area |
| --- | --- | --- |
| MEL-JUSO | 78.52 h | 1.52e+07 a.u. and 1.19e+07 a.u. and 1.43e+07 a.u. and 1.35e+07 a.u. and 1.21e+07 a.u. and 1.3e+07 a.u. |
| NCI-H358 | 270 h | 1.23e+07 a.u. and 1.18e+07 a.u. and 1.1e+07 a.u. |
| NCI-H1437 | 150 h | 3.54e+07 a.u. and 4.52e+07 a.u. and 3.33e+07 a.u. and 3.05e+07 a.u. and 3.28e+07 a.u. and 3.97e+07 a.u. |

Sample 2
Target: Beta-1 adrenergic receptor (ADRB1, Homo sapiens, UniProt P08588)
Chain of UniProt P08588 (whole entry, looked up): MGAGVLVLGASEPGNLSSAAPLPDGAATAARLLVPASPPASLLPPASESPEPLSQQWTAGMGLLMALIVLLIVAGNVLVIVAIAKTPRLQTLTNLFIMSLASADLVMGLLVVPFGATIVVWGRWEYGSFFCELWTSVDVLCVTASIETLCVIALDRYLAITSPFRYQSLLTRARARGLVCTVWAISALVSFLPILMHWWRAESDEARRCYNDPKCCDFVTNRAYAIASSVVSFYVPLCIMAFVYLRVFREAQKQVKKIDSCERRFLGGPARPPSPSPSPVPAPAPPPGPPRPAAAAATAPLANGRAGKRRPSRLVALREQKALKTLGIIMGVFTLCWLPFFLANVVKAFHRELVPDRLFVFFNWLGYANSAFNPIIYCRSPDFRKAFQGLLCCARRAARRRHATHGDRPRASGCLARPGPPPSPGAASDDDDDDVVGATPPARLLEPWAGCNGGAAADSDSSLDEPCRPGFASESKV
Action: antagonist
| Compound | IC50 [µM] |
| --- | --- |
| Cc1noc2c(-c3cccnc3)cc(-c3cccc(C(F)(F)F)c3)nc12 | ≥ 100 |
| COc1ccc(OCC(O)CN2CCC(O)CC2)c(CNCC2(O)CCCCC2)c1 (centres unmarked) | ≥ 100 |
| COc1cc(-c2nccc3c(=O)cc(N(C)c4ccccc4)oc23)ccn1 | ≥ 100 |

Sample 3
Organism: Sarcocystis neurona
Read-out: parasite growth
Tested at: concentration not given
Setting: second screen
Relative to: untreated
| SMILES | log2 fold change |
| --- | --- |
| C[C@]12C=CC(=O)C=C1CC[C@@H]1[C@@H]2[C@@H](O)C[C@@]2(C)[C@H]1CC[C@]2(O)C(=O)COC(=O)CCC(=O)[O-].[Na+] | 0.19 |
| CN1CCN(c2nc3cc(C(F)(F)F)ccc3n3cccc23)CC1 | 0.05 |
| COc1ccc(C(=O)NCc2ccc(OCCN(C)C)cc2)cc1OC.Cl | 0.28 |

Sample 4
SMILES: O=C(Nc1cnn(-c2csc(C(=O)NC3COC3)c2)c1)Nc1c(F)cccc1Cl
Read-out: enzyme activity
Tested at: 5 µM
| target | test | how to read | remaining activity |
| --- | --- | --- | --- |
| LIM domain kinase 1 (LIMK1, Homo sapiens, UniProt P53667) | – | relative to: untreated control | 98.6% |
| CSNK2A1 (Homo sapiens, UniProt P68400) | – | relative to: untreated control | 87.5% |
| LATS1 (Homo sapiens, UniProt O95835) | inhibitor | – | 93.5% |

Sample 5
Compound: CC1=C(/C=C/C(C)=C/C=C/C(C)=C/C(=O)O)C(C)(C)CCC1
Cell line: HuT78
Tested at: concentration not given
Setting: unit not given
Relative to: vehicle
| test | mRNA level |
| --- | --- |
| qPCR, refers to: STAT4 | 2.22 and 2.69 and 2.08 |
| qPCR, refers to: TGFB1 | 0.747 and 0.601 and 0.707 |
| refers to: IL2RA | 1.47 and 1.56 and 1.65 |

Sample 6
SMILES: O=C(Nc1ccc(Oc2ccc(F)cc2)cc1)N1CCc2ncccc2[C@H]1c1ccc(F)cc1
Tested at: 1 µM
| target | test | remaining binding [%] |
| --- | --- | --- |
| MAP3K6 (Homo sapiens, UniProt O95382) | cell-free assay, competition with immobilised ligand | 100 |
| CDK19 (Homo sapiens, UniProt Q9BWU1) | competition binding | 79 |
| WNK3 (Homo sapiens, UniProt Q9BYP7) | cell-free assay, competition with immobilised ligand | 94 |
| CSNK1A1L (Homo sapiens, UniProt Q8N752) | cell-free assay, competition with immobilised ligand | 92 |
| STK36 (Homo sapiens, UniProt Q9NRP7) | cell-free assay, competition with immobilised ligand | 89 |
| AAK1 (Homo sapiens, UniProt Q2M2I8) | binding | 95 |
| NEK3 (Homo sapiens, UniProt P51956) | cell-free assay, competition with immobilised ligand | 64 |
| Ribosomal protein S6 kinase alpha-2, N-terminal kinase domain (RPS6KA2, Homo sapiens, UniProt Q15349) | cell-free assay, competition with immobilised ligand | 100 |
| MELK (Homo sapiens, UniProt Q14680) | cell-free assay, competition with immobilised ligand | 78 |
| Tyrosine-protein kinase ABL1, non-phosphorylated (ABL1, Homo sapiens, UniProt P00519, F317L) | cell-free assay, competition with immobilised ligand | 70 |
| STK16 (Homo sapiens, UniProt O75716) | cell-free assay, competition with immobilised ligand | 100 |
| MARK4 (Homo sapiens, UniProt Q96L34) | cell-free assay, competition with immobilised ligand | 86 |
| DYRK1B (Homo sapiens, UniProt Q9Y463) | cell-free assay, competition with immobilised ligand | 88 |
| AKT2 (Homo sapiens, UniProt P31751) | cell-free assay, competition with immobilised ligand | 96 |
| NEK5 (Homo sapiens, UniProt Q6P3R8) | cell-free assay, competition with immobilised ligand | 96 |
| ERN1 (Homo sapiens, UniProt O75460) | cell-free assay, competition with immobilised ligand | 85 |
| MET (Homo sapiens, UniProt P08581, M1250T) | cell-free assay, competition with immobilised ligand | 97 |
| CSNK2A2 (Homo sapiens, UniProt P19784) | cell-free assay, competition with immobilised ligand | 100 |
| MET (Homo sapiens, UniProt P08581, Y1235D) | cell-free assay, competition with immobilised ligand | 86 |
| FLT3 (Homo sapiens, UniProt P36888, D835H) | cell-free assay, competition with immobilised ligand | 86 |
| EPHA7 (Homo sapiens, UniProt Q15375) | cell-free assay, competition with immobilised ligand | 90 |
| Ribosomal protein S6 kinase alpha-4, N-terminal kinase domain (RPS6KA4, Homo sapiens, UniProt O75676) | cell-free assay, competition with immobilised ligand | 94 |
| STK32C (Homo sapiens, UniProt Q86UX6) | cell-free assay, competition with immobilised ligand | 75 |
| MKNK2 (Homo sapiens, UniProt Q9HBH9) | cell-free assay, competition with immobilised ligand | 91 |
| WEE1 (Homo sapiens, UniProt P30291) | cell-free assay, competition with immobilised ligand | 100 |

Sample 7
Host: mouse
Medium: microsomes or S9
Tested at: 2 µM
Time: 0.5 h
| SMILES | remaining compound [%] |
| --- | --- |
| CC(C)c1oc(C2CCCN2S(=O)(=O)c2ccc3c(c2)COC3)nc1-c1ccccc1 (centres unmarked) | 8.56 |
| Clc1nn2c(-c3ccccc3)nnc2c2ccccc12 | 4.97 |
| COc1ccc(-n2c3c(c4nc(OC)ccc42)CCC3)cc1 | 2.45 |
| c1ccc(-c2nc3c(-c4ccccc4)ccc(-c4ccccc4)n3n2)cc1 | 82.8 |

Sample 8
Cell line: mouse MPNST tumor cells
Method: high-content immunofluorescence imaging
Refers to: nuclear SOX9
Tested at: 10 µM
Time: 12 h
Setting: mean of 2 replicates
Relative to: DMSO control
Direction: higher = more nuclear SOX9
| Compound | nuclear SOX9 intensity |
| --- | --- |
| COc1ccccc1S(=O)(=O)Nc1ccc2c(c1)CN(C)C(=O)N2 | 110 % of DMSO |
| COc1ccc([C@@H]2Sc3ccccc3N(CCN(C)C)C(=O)[C@@H]2OC(C)=O)cc1 | 113 % of DMSO and 121 % of DMSO |
| CC(=C(CCO)SSCC1CCCO1)N(C=O)Cc1cnc(C)nc1N (stereo in doubt) | 103 % of DMSO |
| NNc1nncc2ccccc12 | 103 % of DMSO |

Further values, each from its own experiment
| SMILES | tested on | test | test system | setting | endpoint | result |
| --- | --- | --- | --- | --- | --- | --- |
| CCCN1C(=O)[C@H](CC(C)C)NC(=O)[C@@H](N(C)C(=O)[C@H](CC2CCC2)NC(=O)[C@@H]2C[C@@H](F)CN2C(=O)[C@@](C)(O)C(F)(F)F)CCCCNC(=O)C2(CC2)NC(=O)[C@@H]1Cc1cc(Cl)ccc1Cl | – | – | mouse NCI-H1048 xenograft | iv, 100 mg/kg once daily, day 11 | tumour volume | 347 mm3 and 403 mm3 and 308 mm3 and 558 mm3 and 481 mm3 and 372 mm3 and 478 mm3 and 318 mm3 |
| N#Cc1c(Oc2ccc(F)c(NC(=O)Cc3cccc(C(F)(F)F)c3)c2)ccc2nc(NC(=O)C3CC3)sc12 | RIPK3 (Homo sapiens, UniProt Q9Y572) | kinase activity, inhibitor, ADP-Glo | – | 250 nM, 1 h | inhibition | 89.3% |
